Results pooled from the literature.
Protocols differ between the studies behind these lines. ± gives the spread as reported.
CD38: ADP-ribosyl cyclase/cyclic ADP-ribose hydrolase 1 (CD38, Homo sapiens, UniProt P28907)
Chain of UniProt P28907 (whole entry, looked up): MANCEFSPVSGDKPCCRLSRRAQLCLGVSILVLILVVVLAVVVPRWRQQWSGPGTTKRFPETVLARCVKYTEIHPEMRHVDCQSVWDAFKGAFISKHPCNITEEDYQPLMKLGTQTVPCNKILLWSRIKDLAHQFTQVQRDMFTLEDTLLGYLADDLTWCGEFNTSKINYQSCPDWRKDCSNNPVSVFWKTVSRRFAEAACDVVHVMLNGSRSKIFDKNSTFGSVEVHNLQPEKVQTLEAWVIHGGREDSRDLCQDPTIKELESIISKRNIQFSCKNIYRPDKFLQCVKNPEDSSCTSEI
Chain of UniProt P30989 (whole entry, looked up): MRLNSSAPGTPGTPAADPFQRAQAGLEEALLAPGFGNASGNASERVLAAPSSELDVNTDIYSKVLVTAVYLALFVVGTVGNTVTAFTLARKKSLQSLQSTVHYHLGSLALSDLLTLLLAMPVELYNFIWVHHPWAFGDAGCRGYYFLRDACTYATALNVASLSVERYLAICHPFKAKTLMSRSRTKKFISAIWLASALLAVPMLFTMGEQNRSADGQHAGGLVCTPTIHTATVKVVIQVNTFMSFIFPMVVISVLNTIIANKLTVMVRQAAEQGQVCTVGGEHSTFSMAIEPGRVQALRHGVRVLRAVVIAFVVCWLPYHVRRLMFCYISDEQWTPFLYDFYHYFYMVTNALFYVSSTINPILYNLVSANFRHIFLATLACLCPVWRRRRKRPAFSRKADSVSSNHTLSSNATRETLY
Chain of UniProt Q16539 (whole entry, looked up): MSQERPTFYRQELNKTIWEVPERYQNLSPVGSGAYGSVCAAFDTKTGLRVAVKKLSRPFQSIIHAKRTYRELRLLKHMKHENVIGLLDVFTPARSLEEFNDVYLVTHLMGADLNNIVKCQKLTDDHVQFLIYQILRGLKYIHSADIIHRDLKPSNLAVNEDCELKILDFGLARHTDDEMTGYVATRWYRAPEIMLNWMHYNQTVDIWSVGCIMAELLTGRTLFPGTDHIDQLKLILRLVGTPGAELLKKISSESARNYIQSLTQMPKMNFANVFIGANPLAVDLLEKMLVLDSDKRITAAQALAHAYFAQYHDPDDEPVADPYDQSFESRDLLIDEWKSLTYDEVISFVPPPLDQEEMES
Chain of UniProt P30969 (whole entry, looked up): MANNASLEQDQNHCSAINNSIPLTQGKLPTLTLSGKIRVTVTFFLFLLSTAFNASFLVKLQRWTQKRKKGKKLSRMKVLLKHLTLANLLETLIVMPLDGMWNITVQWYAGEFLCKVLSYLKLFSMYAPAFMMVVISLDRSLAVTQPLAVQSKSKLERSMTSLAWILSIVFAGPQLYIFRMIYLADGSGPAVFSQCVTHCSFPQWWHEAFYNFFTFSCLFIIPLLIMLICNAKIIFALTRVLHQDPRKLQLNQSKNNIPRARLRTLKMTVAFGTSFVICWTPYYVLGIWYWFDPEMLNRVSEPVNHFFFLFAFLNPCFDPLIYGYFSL
Chain of UniProt P60477 (whole entry, looked up): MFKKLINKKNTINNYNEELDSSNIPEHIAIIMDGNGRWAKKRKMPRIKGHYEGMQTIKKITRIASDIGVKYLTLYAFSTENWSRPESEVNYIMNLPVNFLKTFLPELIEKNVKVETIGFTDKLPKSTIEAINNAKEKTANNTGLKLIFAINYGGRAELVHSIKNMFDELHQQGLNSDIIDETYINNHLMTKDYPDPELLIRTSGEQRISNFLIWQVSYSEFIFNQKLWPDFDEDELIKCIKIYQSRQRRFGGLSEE
Chain of UniProt P52699 (whole entry, looked up): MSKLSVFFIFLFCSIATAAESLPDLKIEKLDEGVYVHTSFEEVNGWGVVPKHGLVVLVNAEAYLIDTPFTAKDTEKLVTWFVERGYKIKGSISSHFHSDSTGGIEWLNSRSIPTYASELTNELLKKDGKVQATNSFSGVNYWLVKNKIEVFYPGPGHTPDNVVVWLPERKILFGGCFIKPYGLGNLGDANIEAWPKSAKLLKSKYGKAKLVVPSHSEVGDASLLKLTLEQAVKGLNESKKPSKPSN
Chain of UniProt Q96KS0 (whole entry, looked up): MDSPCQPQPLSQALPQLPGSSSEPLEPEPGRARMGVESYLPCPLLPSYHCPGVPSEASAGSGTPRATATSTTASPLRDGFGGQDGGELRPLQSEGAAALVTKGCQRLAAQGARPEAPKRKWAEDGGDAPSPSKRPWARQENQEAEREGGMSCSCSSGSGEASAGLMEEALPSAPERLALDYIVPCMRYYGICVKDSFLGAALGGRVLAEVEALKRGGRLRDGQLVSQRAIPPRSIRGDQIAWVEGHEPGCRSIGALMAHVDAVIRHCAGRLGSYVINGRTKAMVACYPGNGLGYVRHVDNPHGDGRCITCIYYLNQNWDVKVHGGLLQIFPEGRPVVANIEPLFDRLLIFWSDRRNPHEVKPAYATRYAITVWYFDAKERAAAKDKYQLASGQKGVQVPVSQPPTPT
Chain of UniProt Q9QXD6 (whole entry, unmodified, looked up): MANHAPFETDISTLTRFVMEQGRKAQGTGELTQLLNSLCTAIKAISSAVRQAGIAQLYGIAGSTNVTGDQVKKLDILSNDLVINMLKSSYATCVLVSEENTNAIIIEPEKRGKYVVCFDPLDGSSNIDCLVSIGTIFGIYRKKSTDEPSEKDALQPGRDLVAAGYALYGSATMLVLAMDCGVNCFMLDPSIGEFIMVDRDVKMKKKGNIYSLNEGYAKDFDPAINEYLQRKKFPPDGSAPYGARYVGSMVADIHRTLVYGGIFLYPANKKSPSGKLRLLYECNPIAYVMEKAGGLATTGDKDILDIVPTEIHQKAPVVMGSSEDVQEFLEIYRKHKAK
Chain of UniProt P51812 (whole entry, unmodified, looked up): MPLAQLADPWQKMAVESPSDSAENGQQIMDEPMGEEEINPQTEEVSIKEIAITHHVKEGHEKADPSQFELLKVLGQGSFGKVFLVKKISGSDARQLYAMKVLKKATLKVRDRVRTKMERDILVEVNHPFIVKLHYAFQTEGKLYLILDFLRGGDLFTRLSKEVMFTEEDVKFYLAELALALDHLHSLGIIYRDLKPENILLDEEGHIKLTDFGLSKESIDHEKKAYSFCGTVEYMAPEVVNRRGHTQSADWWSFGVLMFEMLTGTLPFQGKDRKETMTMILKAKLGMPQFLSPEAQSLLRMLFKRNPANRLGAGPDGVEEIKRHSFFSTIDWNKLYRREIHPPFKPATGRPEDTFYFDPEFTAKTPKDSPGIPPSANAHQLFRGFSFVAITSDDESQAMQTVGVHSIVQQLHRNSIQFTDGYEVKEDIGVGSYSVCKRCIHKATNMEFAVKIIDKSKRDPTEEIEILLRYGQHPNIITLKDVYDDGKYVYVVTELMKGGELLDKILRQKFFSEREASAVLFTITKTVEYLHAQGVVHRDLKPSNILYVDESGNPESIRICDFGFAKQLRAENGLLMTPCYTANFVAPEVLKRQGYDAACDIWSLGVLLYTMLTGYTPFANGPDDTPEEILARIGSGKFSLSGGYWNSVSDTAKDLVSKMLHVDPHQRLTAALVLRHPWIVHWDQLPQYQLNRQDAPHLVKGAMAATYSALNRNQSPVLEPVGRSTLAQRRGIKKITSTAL
Chain of UniProt Q04771 (whole entry, unmodified, looked up): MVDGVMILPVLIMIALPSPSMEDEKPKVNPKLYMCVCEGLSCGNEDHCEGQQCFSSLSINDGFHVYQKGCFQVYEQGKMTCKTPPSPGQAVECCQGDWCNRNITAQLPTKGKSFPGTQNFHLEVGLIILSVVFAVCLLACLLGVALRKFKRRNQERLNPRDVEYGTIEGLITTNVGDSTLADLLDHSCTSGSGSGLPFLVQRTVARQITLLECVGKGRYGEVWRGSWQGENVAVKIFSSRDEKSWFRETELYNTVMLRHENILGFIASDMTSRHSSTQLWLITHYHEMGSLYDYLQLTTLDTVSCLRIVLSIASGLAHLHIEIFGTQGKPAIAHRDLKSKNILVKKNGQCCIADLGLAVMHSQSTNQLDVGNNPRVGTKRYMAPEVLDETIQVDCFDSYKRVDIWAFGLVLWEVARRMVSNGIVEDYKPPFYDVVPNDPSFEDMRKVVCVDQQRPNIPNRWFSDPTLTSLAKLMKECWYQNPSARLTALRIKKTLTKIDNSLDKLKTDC
Chain of UniProt P39051 (whole entry, looked up): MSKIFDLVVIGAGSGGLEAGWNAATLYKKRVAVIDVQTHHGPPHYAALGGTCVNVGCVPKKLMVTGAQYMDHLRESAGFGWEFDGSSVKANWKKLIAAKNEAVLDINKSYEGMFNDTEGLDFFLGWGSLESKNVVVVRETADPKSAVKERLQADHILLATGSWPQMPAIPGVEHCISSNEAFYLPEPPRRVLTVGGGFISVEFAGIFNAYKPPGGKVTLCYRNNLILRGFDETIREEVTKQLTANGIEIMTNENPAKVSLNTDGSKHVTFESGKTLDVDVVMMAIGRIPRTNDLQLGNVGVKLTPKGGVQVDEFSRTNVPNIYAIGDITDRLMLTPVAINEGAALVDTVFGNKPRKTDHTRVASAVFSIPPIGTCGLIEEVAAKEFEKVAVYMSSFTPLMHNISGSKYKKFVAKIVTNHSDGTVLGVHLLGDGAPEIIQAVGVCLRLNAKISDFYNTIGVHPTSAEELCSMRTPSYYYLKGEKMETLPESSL
Chain of UniProt Q15722 (whole entry, looked up): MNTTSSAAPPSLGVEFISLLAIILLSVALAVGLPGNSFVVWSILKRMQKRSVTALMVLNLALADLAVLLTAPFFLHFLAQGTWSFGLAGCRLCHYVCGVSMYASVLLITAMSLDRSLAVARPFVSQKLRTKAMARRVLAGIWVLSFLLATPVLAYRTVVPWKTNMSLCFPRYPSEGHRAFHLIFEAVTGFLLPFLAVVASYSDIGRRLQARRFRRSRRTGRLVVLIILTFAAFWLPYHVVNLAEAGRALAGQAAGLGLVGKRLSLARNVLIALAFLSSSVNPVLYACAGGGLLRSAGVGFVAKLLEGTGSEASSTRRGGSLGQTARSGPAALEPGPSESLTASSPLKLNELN

The IC50 of `CCCCCCCCCCCCCCCC=CCC(=O)C(F)(F)F` is reported as over 1 µM (Liver carboxylesterase 1 (CES1, Homo sapiens, UniProt P23141); enzyme activity, inhibitor).
`Nc1ncnc2c1ncn2C1OC(COP(=O)(O)O)C(O)C1O` (centres unmarked) gave an IC50 of 13300 µM (Fructose-1,6-bisphosphatase 1 (Mus musculus, UniProt Q9QXD6, Y114F); enzyme activity, inhibitor; His-tagged mouse Y114F mutant).
For `N#Cc1c(O)nsc1Nc1ccccc1C(F)(F)F`, the IC50 was 0.57 µM (NAD(+) hydrolase SARM1 (SARM1, Homo sapiens, UniProt Q6SZW1, C649A); enzyme activity, inhibitor).
With `CCCCCCOc1cccc(C(=O)Nc2ccc(F)cc2C(=O)O)c1` the IC50 was 4.9 µM (Isoprenyl transferase (uppS, Staphylococcus aureus, UniProt P60477); enzyme activity, inhibitor; pH 7.5, together with: FPP 5 µM, IPP 50 µM).
`O=C(c1ccccc1Br)N1CCN(c2ccc(F)cc2)CC1` gave an IC50 of over 100 µM (SEC14 (Saccharomyces cerevisiae, UniProt P24280); enzyme activity, inhibitor, radiometric).
With `O=c1c2ncn3c2ncn1[C@@H]1O[C@H](COCc2cn(nn2)C[C@H]2O[C@@H]3[C@H](O)[C@@H]2O)[C@@H](O)[C@H]1O` the IC50 was 396 µM (CD38; enzyme activity, inhibitor).
The IC50 of `COc1ccc2nc(-c3cc(-c4cnn(C5CCNCC5)c4)cnc3N)oc2c1-c1ccc2cn[nH]c2c1` is reported as 0.25 µM (Tyrosine-protein kinase JAK2 (JAK2, Homo sapiens, UniProt O60674); enzyme activity, inhibitor, TR-FRET).
The IC50 of `CCn1nc(-c2cc(Br)cs2)nc2c(=O)n(C)c(=O)nc1-2` is reported as 13 µM (Trypanothione reductase (TPR, Trypanosoma brucei brucei, UniProt P39051); inhibitor, DTNB-coupled colourimetric; together with: substrate at Km).
For `CC(C)C[C@H](NC(=O)[C@@H](Cc1c[nH]c2ccccc12)NC(=O)[C@H](Cc1c[nH]cn1)NC(=O)[C@H](CO)NC(=O)[C@H](Cc1c[nH]c2ccccc12)NC(=O)[C@H](Cc1c[nH]cn1)NC(=O)[C@@H]1CCC(=O)N1)C(=O)N[C@@H](CCCNC(=N)N)C(=O)N1CCC[C@H]1C(=O)NCC(N)=O`, the IC50 was 0.0008 µM (Gonadotropin-releasing hormone receptor (Rattus norvegicus, UniProt P30969); ligand displacement in cells, radioligand).
`CC(C)NCc1ccc(C[C@@H]2NC(=O)[C@@H](Cc3c[nH]c4ccccc34)NC(=O)[C@H](Cc3ccccc3)NC(=O)[C@H](NC(=O)[C@@H](N)Cc3ccc(Cl)cc3)CSSC[C@@H](C(=O)N[C@@H](Cc3ccc4ccccc4c3)C(N)=O)NC(=O)[C@H](Cc3ccc(O)c(I)c3)NC2=O)cc1` has an IC50 of over 1 µM (Somatostatin receptor type 3 (SSTR3, Homo sapiens, UniProt P32745); ligand displacement, radioligand; cell membranes).
`COc1cc(-c2nc3ccc(C(=O)NCCCN4CCN(C(=O)c5ccccc5)CC4)cc3n2C2CCC2)cc(OC)c1OC` has an IC50 of 2.61 µM (Activin receptor type-1 (ACVR1, Homo sapiens, UniProt Q04771, R206H); binding, NanoBRET; HEK293).
The IC50 of `CCn1c(-c2cc(NC(=O)c3cnccn3)n[nH]2)cc2ccccc21` is reported as 9.1 ± 0.39 µM (Casein kinase II subunit alpha (CSNK2A1, Homo sapiens, UniProt P68400)).
With `CN(C)c1ccc2c3c(cccc13)C(=O)N(C(CS)C(=O)O)C2=O` (centres unmarked) the IC50 was 1.02 ± 0.05 µM (Metallo-beta-lactamase type 2 (Serratia marcescens, UniProt P52699); enzyme activity, inhibitor; pH 7.0, together with: chromacef 25 µM).
`C=C(NC(=O)C(=C)NC(=O)c1csc(C2=NC3c4csc(n4)C4NC(=O)c5csc(n5)C(C(C)(O)C(C)O)NC(=O)C5CSC(=N5)C(=CC)NC(=O)C(C(C)O)NC(=O)c5csc(n5)C3(CC2)NC(=O)C(CO)NC(=O)C(=C)NC(=O)C(C)NC(=O)C(C(C)CC)NC2C=Cc3c(C(C)O)cc(nc3C2O)C(=O)OC4C)n1)C(N)=O` (centres unmarked) has an IC50 of 0.39 ± 0.03 µM (Proteasome subunit beta type-7, in 20S proteasome (PSMB7, Homo sapiens, UniProt Q99436); trypsin-like activity, inhibitor; purified 20S proteasome; 15 min preincubation, 37 °C, together with: Boc-Leu-Arg-Arg-AMC substrate).
`N#C/C(=C\c1cccc(C(N)=O)c1)C(N)=O` has an IC50 of 6.8 µM (Ribosomal protein S6 kinase alpha-3, C-terminal kinase domain (RPS6KA3, Homo sapiens, UniProt P51812, T493M); kinase activity, inhibitor; together with: 0.1 mM ATP).
The IC50 of `Cc1cn([C@@H]2C[C@@H](O)[C@H](COP(=O)(O)O)O2)c(=O)[nH]c1=O` is reported as 82 µM (Thymidylate kinase (DTYMK, Homo sapiens, UniProt P23919); ligand displacement).
`Cc1cc(O)c(C(=O)/C=C/c2ccc(Cl)cc2)c(=O)o1` gave an IC50 of 15 µM (CD38; enzyme activity, inhibitor, fluorescence).
`CC[C@@H](O)/C=C/C=C\C[C@@H](O)/C=C/C=C/C=C\[C@@H](O)CCCC(=O)O` gave an IC50 of about 0.5 µM (Leukotriene B4 receptor 1 (LTB4R, Homo sapiens, UniProt Q15722); ligand displacement in cells, radioligand).
For `Cc1cnc(C(=O)N[C@@H](Cc2cn(C(C)C)cn2)C(=O)N2CCC[C@H]2C(N)=O)cn1`, the IC50 was over 50 µM (Thyrotropin-releasing hormone receptor (Mus musculus, UniProt P21761); ligand displacement, radioligand).
For `Cc1cc(O)cc(C)c1C[C@H](NC(=O)[C@@H]1CCCN1C(=O)[C@H](CCCNC(=N)N)NC(=O)[C@H](CCCNC(=N)N)N(C)C(=O)[C@@H]1CCCN1C(=O)[C@@H](CC(C)C)NC(=O)[C@@H](CC(C)C)NC(=O)[C@H](CCCCN)NC(=O)[C@@H](CC(C)C)NC(=O)[C@@H](CC(C)C)NC(=O)CN1CCN(CC(=O)O)CCN(CC(=O)O)CCN(CC(=O)O)CC1)C(=O)N[C@H](C(=O)N[C@@H](CC(C)C)C(=O)O)C(C)(C)C`, the IC50 was 0.031 µM (Neurotensin receptor type 1 (NTSR1, Homo sapiens, UniProt P30989); ligand displacement, radioligand; pH 7.4).
For `Nc1nnc(Nc2ccc(Cl)cc2)[nH]1`, the IC50 was about 3000 µM (Mitogen-activated protein kinase 14 (MAPK14, Homo sapiens, UniProt Q16539); enzyme activity, inhibitor).
`CCCN(CCC)c1[nH]cnc2ncnc1-2` has an IC50 of 372 µM (Sensor histidine protein kinase/phosphatase WalK (walK, Streptococcus pneumoniae, UniProt Q8DPL8); enzyme activity, ATP-competitive inhibitor).
`COCCOCCOc1cc2nccc(Oc3ccc(NC(=O)NC4CC4)c(Cl)c3)c2cc1C(N)=O` gave an IC50 of over 0.1 µM (Fibroblast growth factor receptor 4 (FGFR4, Homo sapiens, UniProt P22455); enzyme activity, inhibitor).
For `COc1ccc(S(=O)(=O)n2nc(OC(=O)c3ccccc3)cc2N)cc1`, the IC50 was 0.16 µM (Genome polyprotein, protease (West Nile virus, UniProt P06935); enzyme activity, inhibitor, fluorescence; with preincubation).
With `CC(=O)NCCN(CCC(=O)NCCN(CCC(=O)NCCN(CCC(=O)NCCC(N)=O)C(=O)[C@@H](N)CCCNC(=N)N)C(=O)[C@@H](N)CCCNC(=N)N)C(=O)[C@@H](N)Cc1ccccc1` the IC50 was 2.7 ± 0.8 µM (HIV-1 TAR RNA; Tat/TAR complex displacement, FRET; room temperature, together with: 10 nM Tat/TAR complex).
`CCn1c(SC(C)C(=O)Nc2ccccc2C)nnc1C1CCN(C(=O)Nc2ccccc2)CC1` (centres unmarked) gave an IC50 of 23.6 µM (Seed linoleate 13S-lipoxygenase-1 (Glycine max, UniProt P08170); enzyme activity, inhibitor).
`O=c1c(-c2cccnc2)c[nH]n1-c1cnccn1` has an IC50 of 0.93 µM (Prolyl hydroxylase EGLN2 (EGLN2, Homo sapiens, UniProt Q96KS0); enzyme activity, inhibitor, europium VBC binding; 10 µM FeSO4, 2 mM ascorbate, together with: 20 µM 2-oxoglutarate).
With `CC(=O)N[C@H]1[C@@H](OC(=O)NCCCOCCOCCOCCCNC(=O)O[C@H]2O[C@H](CNC(=O)OCCOCCOCCOCCOCCOCCOCCOC(=O)NC[C@H]3O[C@H](OC(=O)NCCCOCCOCCOCCCNC(=O)O[C@H]4O[C@H](CO)[C@@H](O)[C@H](O)[C@H]4NC(C)=O)[C@H](NC(C)=O)[C@@H](O)[C@@H]3O)[C@@H](O)[C@H](O)[C@H]2NC(C)=O)O[C@H](CO)[C@@H](O)[C@@H]1O` the IC50 was 0.015 µM (wheat germ agglutinin (Triticum vulgaris); binding to immobilised GlcNAc, inhibitor, enzyme-linked lectin; together with: HRP-labelled WGA).
`CNC(=O)C1CCN(c2cc(C)c(F)cc2NC(=O)c2ccc(-c3c(C)ccc4[nH]ncc34)c(C)c2)CC1` has an IC50 of 8.83 µM (Tyrosine-protein kinase Yes (YES1, Homo sapiens, UniProt P07947); target engagement in cells, BRET).

Repeated from above:
`COc1cc(-c2nc3ccc(C(=O)NCCCN4CCN(C(=O)c5ccccc5)CC4)cc3n2C2CCC2)cc(OC)c1OC` has an IC50 of 2.61 µM (Activin receptor type-1 (ACVR1, Homo sapiens, UniProt Q04771, R206H); binding, NanoBRET; HEK293).
`CC(C)NCc1ccc(C[C@@H]2NC(=O)[C@@H](Cc3c[nH]c4ccccc34)NC(=O)[C@H](Cc3ccccc3)NC(=O)[C@H](NC(=O)[C@@H](N)Cc3ccc(Cl)cc3)CSSC[C@@H](C(=O)N[C@@H](Cc3ccc4ccccc4c3)C(N)=O)NC(=O)[C@H](Cc3ccc(O)c(I)c3)NC2=O)cc1` has an IC50 of over 1 µM (Somatostatin receptor type 3 (SSTR3, Homo sapiens, UniProt P32745); ligand displacement, radioligand; cell membranes).
For `Cc1cc(O)cc(C)c1C[C@H](NC(=O)[C@@H]1CCCN1C(=O)[C@H](CCCNC(=N)N)NC(=O)[C@H](CCCNC(=N)N)N(C)C(=O)[C@@H]1CCCN1C(=O)[C@@H](CC(C)C)NC(=O)[C@@H](CC(C)C)NC(=O)[C@H](CCCCN)NC(=O)[C@@H](CC(C)C)NC(=O)[C@@H](CC(C)C)NC(=O)CN1CCN(CC(=O)O)CCN(CC(=O)O)CCN(CC(=O)O)CC1)C(=O)N[C@H](C(=O)N[C@@H](CC(C)C)C(=O)O)C(C)(C)C`, the IC50 was 0.031 µM (Neurotensin receptor type 1 (NTSR1, Homo sapiens, UniProt P30989); ligand displacement, radioligand; pH 7.4).
